Measured values collected from several papers.

CN(C)CC[C@@H](c1ccc(Cl)cc1)c1ccccn1 gave an IC50 of 5.01 µM (Plasmodium falciparum; 7G8).
COc1ccc(OS(=O)(=O)NC(=O)CCCCc2ccccc2)cc1 has an MIC of 200 µg/mL (Streptococcus pneumoniae).
For Cc1ccc2[nH]c3c(c2c1)CCCC3NCCc1ccc(Br)cc1 (stereo not drawn), the MIC was 2 µg/mL (Streptococcus pneumoniae; broth microdilution; TIGR4).
With CC(C)C[C@@H](NC(=O)[C@H](C)NC(=O)CNC(=O)[C@@H](NC=O)C(C)C)C(=O)N[C@@H](C)C(=O)N[C@@H](C(=O)N[C@H](C(=O)N[C@@H](C(=O)N[C@@H](Cc1c[nH]c2ccccc12)C(=O)N[C@H](CC(C)C)C(=O)N[C@@H](Cc1cccc2cc[nH]c12)C(=O)N[C@H](CC(C)C)C(=O)N[C@@H](Cc1c[nH]c2ccccc12)C(=O)N[C@H](CC(C)C)C(=O)N[C@@H](Cc1c[nH]c2ccccc12)C(=O)NCCO)C(C)C)C(C)C)C(C)C the MIC was 33 nM (Streptococcus pneumoniae; broth microdilution; NBRC 102642).
With CCCCCCCC(=O)NP(=O)(O)O the MIC was over 200 µg/mL (Streptococcus pneumoniae).
The MIC of CN[C@H](CC(C)C)C(=O)N[C@H]1C(=O)N[C@@H](CC(N)=O)C(=O)N[C@H]2C(=O)N[C@H]3C(=O)N[C@H](C(=O)N[C@H](C(=O)O)c4cc(O)cc(O)c4-c4cc3ccc4O)[C@H](O)c3ccc(c(Cl)c3)Oc3cc2cc(c3O[C@@H]2O[C@H](CO)[C@@H](O)[C@H](O)[C@H]2O[C@H]2C[C@](C)(N)[C@H](O)[C@H](C)O2)Oc2ccc(cc2Cl)[C@H]1O is reported as 1.5 µg/mL (Streptococcus pneumoniae; ATCC 700677, multidrug-resistant, CAMHB, lysed horse blood).
With Cc1ccc2[nH]c3c(c2c1)CCCC3NCCc1ccccc1Br (stereo not drawn) the MIC was 1.3 µg/mL (Streptococcus pneumoniae; T4; C+Y medium).
CCCC(=O)CP(=O)(O)O has an MIC of 200 µg/mL (Streptococcus pneumoniae).
The MIC of CN[C@H](CC(C)C)C(=O)N[C@H]1C(=O)N[C@@H](CC(N)=O)C(=O)N[C@H]2C(=O)N[C@H]3C(=O)N[C@H](C(=O)N[C@H](C(=O)O)c4cc(O)cc(O)c4-c4cc3ccc4O)[C@H](O)c3ccc(c(Cl)c3)Oc3cc2cc(c3O[C@@H]2O[C@H](CO)[C@@H](O)[C@H](O)[C@H]2O[C@H]2C[C@](C)(N)[C@H](O)[C@H](C)O2)Oc2ccc(cc2Cl)[C@H]1O is reported as 0.25 µg/mL (Streptococcus pneumoniae; penicillin-intermediate).
For CCOC(=O)N1CCC(=C2c3ccc(Cl)cc3CCc3cccnc32)CC1, the IC50 was 2 µM (Plasmodium falciparum; 7G8).
c1ccc(CCOC2CCCc3c2[nH]c2ccccc32)cc1 (stereo not drawn) has an MIC of over 29 µg/mL (Streptococcus pneumoniae; broth microdilution; TIGR4).
CC(C)C[C@@H](NC(=O)[C@H](C)NC(=O)CNC(=O)[C@@H](NC=O)C(C)C)C(=O)N[C@@H](C)C(=O)N[C@@H](C(=O)N[C@H](C(=O)N[C@@H](C(=O)N[C@@H](Cc1c[nH]c2ccccc12)C(=O)N[C@H](CC(C)C)C(=O)N[C@@H](Cc1cc2ccccc2[nH]1)C(=O)N[C@H](CC(C)C)C(=O)N[C@@H](Cc1c[nH]c2ccccc12)C(=O)N[C@H](CC(C)C)C(=O)N[C@@H](Cc1c[nH]c2ccccc12)C(=O)NCCO)C(C)C)C(C)C)C(C)C gave an MIC of 8.3 nM (Streptococcus pneumoniae; broth microdilution; NBRC 102642).
CN[C@H](CC(C)C)C(=O)N[C@H]1C(=O)N[C@@H](CC(N)=O)C(=O)N[C@H]2C(=O)N[C@H]3C(=O)N[C@H](C(=O)N[C@H](C(=O)O)c4cc(O)cc(O)c4-c4cc3ccc4O)[C@H](O)c3ccc(c(Cl)c3)Oc3cc2cc(c3O[C@@H]2O[C@H](CO)[C@@H](O)[C@H](O)[C@H]2O[C@H]2C[C@](C)(N)[C@H](O)[C@H](C)O2)Oc2ccc(cc2Cl)[C@H]1O has an MIC of under 1 µg/mL (Streptococcus pneumoniae; broth microdilution; ATCC 49619, penicillin intermediate; overnight, 37 °C).
With CC(C)C[C@@H](NC(=O)[C@H](C)NC(=O)CNC(=O)[C@@H](NC=O)C(C)C)C(=O)N[C@@H](C)C(=O)N[C@@H](C(=O)N[C@H](C(=O)N[C@@H](C(=O)N[C@@H](Cc1c[nH]c2ccccc12)C(=O)N[C@H](CC(C)C)C(=O)N[C@@H](Cc1ccc2cc[nH]c2c1)C(=O)N[C@H](CC(C)C)C(=O)N[C@@H](Cc1c[nH]c2ccccc12)C(=O)N[C@H](CC(C)C)C(=O)N[C@@H](Cc1c[nH]c2ccccc12)C(=O)NCCO)C(C)C)C(C)C)C(C)C the MIC was 4.2 nM (Streptococcus pneumoniae; broth microdilution; NBRC 102642).
With O=C(CCCCC1CCCCC1)NP(=O)(O)O the MIC was 200 µg/mL (Streptococcus pneumoniae).

Some of these lines once more:
With Cc1ccc2[nH]c3c(c2c1)CCCC3NCCc1ccccc1Br (stereo not drawn) the MIC was 1.3 µg/mL (Streptococcus pneumoniae; T4; C+Y medium).
The MIC of CN[C@H](CC(C)C)C(=O)N[C@H]1C(=O)N[C@@H](CC(N)=O)C(=O)N[C@H]2C(=O)N[C@H]3C(=O)N[C@H](C(=O)N[C@H](C(=O)O)c4cc(O)cc(O)c4-c4cc3ccc4O)[C@H](O)c3ccc(c(Cl)c3)Oc3cc2cc(c3O[C@@H]2O[C@H](CO)[C@@H](O)[C@H](O)[C@H]2O[C@H]2C[C@](C)(N)[C@H](O)[C@H](C)O2)Oc2ccc(cc2Cl)[C@H]1O is reported as 1.5 µg/mL (Streptococcus pneumoniae; ATCC 700677, multidrug-resistant, CAMHB, lysed horse blood).
